Published values gathered from unrelated publications.
Cell line: ACHN

Cc1n[nH]c2nc(-c3ccc(Cl)cc3)c3c(NC(=O)c4ccccc4)nnc-3n12 — cell growth (SRB; 10 µM, NCI60 single-dose screen; relative to: untreated): 107%
C#C[C@@]1(O)[C@@H](CO)O[C@@H](n2cc(I)c3c(N)ncnc32)[C@@H]1O — TGI (SRB; NCI-60 screen): > 100 µM
CCCCN1CCN(c2ccc3[nH]c(-c4ccc5[nH]c(-c6ccc(C(F)(F)F)cc6)nc5c4)nc3c2)CC1 — growth percent (SRB; 10 µM, 48 h): -99.5%
Cc1cc(-c2ccccc2)n(-c2nc(-c3ccc(Cl)cc3)c3c(NC(=O)c4ccccc4)nnc-3[nH]2)n1 — cell growth (SRB; 10 µM, NCI60 single-dose screen; relative to: untreated): 92%
CCCN1CCN(c2ccc3[nH]c(-c4ccc5[nH]c(-c6ccc(OCC)c(OCC)c6)nc5c4)nc3c2)CC1 — growth percent (SRB; 10 µM, 48 h): -28.9%
O=C1NC(c2ccccc2)(c2ccccc2)C(=O)N1Cc1cn(-c2c3ccccc3nc3ccccc23)nn1 — growth percentage (NCI60 single-dose screen; 10 µM): 81.5%
CN1CCN(c2ccc3[nH]c(-c4ccc5[nH]c(-c6ccc(C(F)(F)F)cc6)nc5c4)nc3c2)CC1 — growth percent (SRB; 10 µM, 48 h): 55.6%
C#C[C@@]1(O)[C@@H](CO)O[C@@H](n2ccc3c(N)ncnc32)[C@@H]1O — TGI (SRB; NCI-60 screen): 4.48 µM
CCCN1CCN(c2ccc3[nH]c(-c4ccc5[nH]c(-c6ccc(C(F)(F)F)cc6)nc5c4)nc3c2)CC1 — growth percent (SRB; 10 µM, 48 h): -99.9%
CSc1nc(-c2ccc(Cl)cc2)c2c(NC(=O)c3ccccc3)nnc-2[nH]1 — cell growth (SRB; 10 µM, NCI60 single-dose screen; relative to: untreated): 95.2%
O=C1NC(=NCc2cccs2)S/C1=C\c1ccc2ncccc2c1 — IC50 (MTS; NCI60 panel): 4.46 µM
CCCCN1CCN(c2ccc3nc(-c4ccc5nc(-c6cc(OC)ccc6OC)[nH]c5c4)[nH]c3c2)CC1 — growth percent (SRB; 10 µM, 48 h): 106%
Cc1cc(=O)[nH]c(=O)n1Cc1cn(-c2c3ccccc3nc3ccccc23)nn1 — growth percentage (NCI60 single-dose screen; 10 µM): 87.4%
Cn1cncc1C1=CN(c2ncnc3[nH]cnc23)CCS1 — GI50 (renal cancer): 10.7 µM
COc1cnc2cccc(N3CCc4c(cc(Cn5ccnc5C)cc4-c4cn(C)nc4C(F)(F)F)C3=O)c2c1 — EC50 (cell growth, inhibitor; 120 h): 8.68 µM
Cc1cc(C)n(C(=S)[S][Au][PH](CCCCCC[PH]([Au][S]C(=S)n2nc(C)cc2C)(c2ccccc2)c2ccccc2)(c2ccccc2)c2ccccc2)n1 — log10 TGI (cell growth, NCI-60 screen; renal cancer): > -4
O=C(Nc1nnc2[nH]c(=S)[nH]c(-c3ccc(Cl)cc3)c1-2)c1ccccc1 — cell growth (SRB; 10 µM, NCI60 single-dose screen; relative to: untreated): 96.7%
CCCC(CCC)C(=O)OCc1cn(-c2c3ccccc3nc3ccccc23)nn1 — growth percentage (NCI60 single-dose screen; 10 µM): 100%
O=C(Nc1nnc2n3c(nc(-c4ccc(Cl)cc4)c1-2)SCC3=O)c1ccccc1 — cell growth (SRB; 10 µM, NCI60 single-dose screen; relative to: untreated): 98.7%
CCCN1CCN(c2ccc3[nH]c(-c4ccc5[nH]c(-c6cc(OC)c(OC)c(OC)c6)nc5c4)nc3c2)CC1 — growth percent (SRB; 10 µM, 48 h): 96.4%
Cc1cc(=O)[nH]n1-c1nc(-c2ccc(Cl)cc2)c2c(NC(=O)c3ccccc3)nnc-2[nH]1 — cell growth (SRB; 10 µM, NCI60 single-dose screen; relative to: untreated): 98.7%
CCn1cc(-c2cc(Cn3ccoc3=N)cc3c2CCN([C@@H](C)c2cc(OC)ccn2)C3=O)c(C(F)(F)F)n1 — EC50 (cell growth, inhibitor; 120 h): 9.63 µM

For quick reference, copied from above:
CSc1nc(-c2ccc(Cl)cc2)c2c(NC(=O)c3ccccc3)nnc-2[nH]1 — cell growth (SRB; 10 µM, NCI60 single-dose screen; relative to: untreated): 95.2%
